Measurements collected from several papers.
Protocols differ between the studies behind these lines. Several values in a cell are separate wells, animals, samples, runs or records. Numbers after ± are the reported error.
Metallo-beta-lactamase type 2: Metallo-beta-lactamase type 2 (Serratia marcescens, UniProt P52699)
PDIA3: Protein disulfide-isomerase A3 (PDIA3, Homo sapiens, UniProt P30101)
Sequence of UniProt P30101 (whole entry, looked up): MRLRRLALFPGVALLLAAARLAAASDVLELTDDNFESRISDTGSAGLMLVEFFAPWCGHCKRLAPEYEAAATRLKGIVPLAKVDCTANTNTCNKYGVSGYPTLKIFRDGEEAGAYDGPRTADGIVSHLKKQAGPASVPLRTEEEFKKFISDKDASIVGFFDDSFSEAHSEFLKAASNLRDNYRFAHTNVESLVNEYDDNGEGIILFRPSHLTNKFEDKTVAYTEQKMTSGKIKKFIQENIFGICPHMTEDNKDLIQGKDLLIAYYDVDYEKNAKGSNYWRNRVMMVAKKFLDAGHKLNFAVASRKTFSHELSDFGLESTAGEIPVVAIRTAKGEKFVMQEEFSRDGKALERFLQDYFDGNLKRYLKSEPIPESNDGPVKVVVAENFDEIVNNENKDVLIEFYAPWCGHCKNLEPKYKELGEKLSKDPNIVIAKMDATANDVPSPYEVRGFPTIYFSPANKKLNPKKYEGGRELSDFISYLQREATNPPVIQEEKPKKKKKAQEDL
CYP2C8: Cytochrome P450 2C8 (CYP2C8, Homo sapiens, UniProt P10632)
Sequence of UniProt P10632 (whole entry, looked up): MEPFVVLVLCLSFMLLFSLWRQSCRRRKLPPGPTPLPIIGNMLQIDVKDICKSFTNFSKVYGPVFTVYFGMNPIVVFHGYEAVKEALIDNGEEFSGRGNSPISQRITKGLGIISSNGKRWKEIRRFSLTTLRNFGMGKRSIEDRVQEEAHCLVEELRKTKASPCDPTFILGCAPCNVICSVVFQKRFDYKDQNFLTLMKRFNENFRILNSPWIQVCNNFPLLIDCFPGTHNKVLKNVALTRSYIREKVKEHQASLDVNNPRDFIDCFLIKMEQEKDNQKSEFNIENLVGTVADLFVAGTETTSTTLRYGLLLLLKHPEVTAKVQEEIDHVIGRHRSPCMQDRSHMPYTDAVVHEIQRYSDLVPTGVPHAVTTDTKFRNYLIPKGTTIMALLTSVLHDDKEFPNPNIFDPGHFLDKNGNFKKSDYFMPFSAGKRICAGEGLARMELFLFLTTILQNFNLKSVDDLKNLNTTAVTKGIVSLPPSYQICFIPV
CSNK2A1: Casein kinase II subunit alpha (CSNK2A1, Homo sapiens, UniProt P68400)
Sequence of UniProt P27487 (whole entry, looked up): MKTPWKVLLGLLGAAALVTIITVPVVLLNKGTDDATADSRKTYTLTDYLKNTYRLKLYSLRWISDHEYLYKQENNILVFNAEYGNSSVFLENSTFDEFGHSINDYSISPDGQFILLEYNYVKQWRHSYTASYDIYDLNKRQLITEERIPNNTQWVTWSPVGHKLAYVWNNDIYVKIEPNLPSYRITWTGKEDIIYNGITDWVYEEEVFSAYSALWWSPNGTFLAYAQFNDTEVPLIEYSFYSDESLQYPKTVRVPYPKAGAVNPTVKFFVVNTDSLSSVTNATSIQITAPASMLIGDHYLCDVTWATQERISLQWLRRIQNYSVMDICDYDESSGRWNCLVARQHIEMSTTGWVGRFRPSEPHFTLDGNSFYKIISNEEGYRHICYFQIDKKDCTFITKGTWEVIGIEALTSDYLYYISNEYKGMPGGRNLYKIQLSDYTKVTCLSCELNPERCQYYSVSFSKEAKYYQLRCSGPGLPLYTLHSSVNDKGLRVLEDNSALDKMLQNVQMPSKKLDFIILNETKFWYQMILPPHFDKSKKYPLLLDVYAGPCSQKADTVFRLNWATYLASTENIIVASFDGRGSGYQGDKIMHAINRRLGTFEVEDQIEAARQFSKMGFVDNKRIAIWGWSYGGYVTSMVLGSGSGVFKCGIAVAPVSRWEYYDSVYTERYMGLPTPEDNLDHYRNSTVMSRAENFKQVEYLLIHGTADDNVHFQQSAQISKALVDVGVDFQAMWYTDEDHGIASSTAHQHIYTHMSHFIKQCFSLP
Sequence of UniProt Q06203 (whole entry, looked up): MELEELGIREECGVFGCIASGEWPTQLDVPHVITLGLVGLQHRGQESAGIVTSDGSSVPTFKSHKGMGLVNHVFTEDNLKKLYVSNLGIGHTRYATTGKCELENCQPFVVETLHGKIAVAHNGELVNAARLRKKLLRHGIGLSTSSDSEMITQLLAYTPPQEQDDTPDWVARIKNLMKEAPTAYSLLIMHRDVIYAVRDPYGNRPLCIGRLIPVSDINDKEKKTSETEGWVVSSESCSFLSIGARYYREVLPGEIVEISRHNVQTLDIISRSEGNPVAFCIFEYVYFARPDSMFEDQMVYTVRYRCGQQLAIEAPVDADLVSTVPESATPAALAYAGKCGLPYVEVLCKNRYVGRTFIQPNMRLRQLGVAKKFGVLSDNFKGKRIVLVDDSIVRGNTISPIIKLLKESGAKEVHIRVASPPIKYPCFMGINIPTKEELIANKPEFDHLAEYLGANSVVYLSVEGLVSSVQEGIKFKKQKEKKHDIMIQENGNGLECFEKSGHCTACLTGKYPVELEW
Sequence of UniProt P68400 (whole entry, looked up): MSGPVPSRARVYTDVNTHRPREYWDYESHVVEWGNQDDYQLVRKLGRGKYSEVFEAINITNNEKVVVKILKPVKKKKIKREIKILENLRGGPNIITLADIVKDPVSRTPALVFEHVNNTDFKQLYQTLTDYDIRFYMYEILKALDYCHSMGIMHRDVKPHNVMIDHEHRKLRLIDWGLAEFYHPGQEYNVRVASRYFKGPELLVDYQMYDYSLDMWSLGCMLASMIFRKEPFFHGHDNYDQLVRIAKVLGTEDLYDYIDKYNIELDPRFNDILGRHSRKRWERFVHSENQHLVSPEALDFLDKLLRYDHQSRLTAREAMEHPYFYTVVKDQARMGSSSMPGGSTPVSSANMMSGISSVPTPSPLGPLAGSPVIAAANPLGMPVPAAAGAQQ
Sequence of UniProt P40261 (whole entry, looked up): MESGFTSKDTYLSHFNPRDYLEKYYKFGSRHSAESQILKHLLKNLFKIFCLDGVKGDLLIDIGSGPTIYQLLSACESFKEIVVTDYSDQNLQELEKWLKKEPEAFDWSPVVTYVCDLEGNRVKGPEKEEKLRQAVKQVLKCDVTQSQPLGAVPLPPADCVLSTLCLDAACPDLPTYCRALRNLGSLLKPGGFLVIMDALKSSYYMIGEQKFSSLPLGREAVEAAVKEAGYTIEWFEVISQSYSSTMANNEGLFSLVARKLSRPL
Sequence of UniProt P26718 (whole entry, looked up): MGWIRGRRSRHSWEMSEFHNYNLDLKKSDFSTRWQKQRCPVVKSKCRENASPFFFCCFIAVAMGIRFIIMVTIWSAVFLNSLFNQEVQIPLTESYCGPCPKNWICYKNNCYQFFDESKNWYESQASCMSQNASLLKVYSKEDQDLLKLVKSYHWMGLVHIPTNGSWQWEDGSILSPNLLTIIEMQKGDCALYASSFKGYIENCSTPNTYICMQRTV
Sequence of UniProt P11712 (whole entry, looked up): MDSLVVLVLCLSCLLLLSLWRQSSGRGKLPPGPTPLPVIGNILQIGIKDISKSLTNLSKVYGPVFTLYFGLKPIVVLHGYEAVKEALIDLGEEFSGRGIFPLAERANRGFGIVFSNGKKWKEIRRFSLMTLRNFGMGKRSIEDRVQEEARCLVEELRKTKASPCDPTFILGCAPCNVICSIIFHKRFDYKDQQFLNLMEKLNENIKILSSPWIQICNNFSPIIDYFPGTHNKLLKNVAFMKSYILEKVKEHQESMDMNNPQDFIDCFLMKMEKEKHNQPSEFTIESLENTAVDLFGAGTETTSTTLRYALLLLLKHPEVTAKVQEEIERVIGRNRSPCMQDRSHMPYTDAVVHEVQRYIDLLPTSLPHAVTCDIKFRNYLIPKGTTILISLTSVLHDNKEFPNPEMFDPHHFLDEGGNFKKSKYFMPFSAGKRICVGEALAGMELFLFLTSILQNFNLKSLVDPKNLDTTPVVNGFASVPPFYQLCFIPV
Sequence of UniProt P54098 (whole entry, looked up): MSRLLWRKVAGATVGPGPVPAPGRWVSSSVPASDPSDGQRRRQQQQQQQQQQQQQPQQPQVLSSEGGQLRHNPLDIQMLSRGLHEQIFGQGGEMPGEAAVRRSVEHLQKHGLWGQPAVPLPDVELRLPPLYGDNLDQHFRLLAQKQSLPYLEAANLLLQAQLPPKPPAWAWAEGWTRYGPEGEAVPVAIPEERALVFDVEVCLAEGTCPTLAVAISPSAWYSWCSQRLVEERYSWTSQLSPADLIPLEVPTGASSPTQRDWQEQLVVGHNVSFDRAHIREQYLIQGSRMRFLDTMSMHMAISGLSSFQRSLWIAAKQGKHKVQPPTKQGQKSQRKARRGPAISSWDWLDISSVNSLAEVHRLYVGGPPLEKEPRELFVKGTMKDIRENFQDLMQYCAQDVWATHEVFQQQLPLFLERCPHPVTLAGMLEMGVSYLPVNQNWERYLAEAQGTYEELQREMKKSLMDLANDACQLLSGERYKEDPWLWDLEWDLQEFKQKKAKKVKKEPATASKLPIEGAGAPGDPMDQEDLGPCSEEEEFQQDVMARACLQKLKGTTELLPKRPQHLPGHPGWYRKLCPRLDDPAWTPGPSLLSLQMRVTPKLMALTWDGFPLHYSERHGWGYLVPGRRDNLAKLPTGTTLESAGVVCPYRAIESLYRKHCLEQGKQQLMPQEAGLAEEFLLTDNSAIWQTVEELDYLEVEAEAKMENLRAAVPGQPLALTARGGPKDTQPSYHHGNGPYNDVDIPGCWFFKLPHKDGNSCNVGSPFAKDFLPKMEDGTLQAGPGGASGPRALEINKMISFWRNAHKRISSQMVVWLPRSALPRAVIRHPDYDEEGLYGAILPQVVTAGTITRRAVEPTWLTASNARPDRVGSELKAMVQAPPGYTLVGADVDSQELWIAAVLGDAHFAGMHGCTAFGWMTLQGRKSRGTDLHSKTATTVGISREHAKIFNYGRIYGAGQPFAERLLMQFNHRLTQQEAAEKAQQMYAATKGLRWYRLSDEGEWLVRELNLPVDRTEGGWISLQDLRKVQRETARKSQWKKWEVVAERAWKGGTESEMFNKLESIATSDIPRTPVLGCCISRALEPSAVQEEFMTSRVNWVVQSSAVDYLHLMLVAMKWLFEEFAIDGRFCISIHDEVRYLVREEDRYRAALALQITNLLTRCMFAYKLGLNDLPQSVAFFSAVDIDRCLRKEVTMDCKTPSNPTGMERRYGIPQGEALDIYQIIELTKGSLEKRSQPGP

The IC50 of COc1cc2c(cc1O)oc1c3ccc(O)cc3oc(=O)c21 is reported as 174 µM (Genome polyprotein, NS5B polymerase (Hepatitis C virus genotype 1b, UniProt P26663); NS5B RNA polymerase activity, inhibitor; hepatitis C virus, genotype 1b; together with: poly(rA)/U12).
For CC(=O)SC[C@@H](C)C(=O)Nc1ccccc1-c1nn[nH]n1, the IC50 was 30.4 µM (Metallo-beta-lactamase type 2; inhibitor; 10 min preincubation, together with: FC5 substrate).
With CNC(=O)C1CN1S(=O)(=O)c1ccc(C(C)(C)C)cc1 (stereo not drawn) the IC50 was 62 µM (PDIA3; enzyme activity, inhibitor, absorbance; pH 7.6).
With CC(=O)[O][Cu+].CN1CCCN2CCN(C)CCCN(CC1)CC2 the IC50 was 0.186 µM (C-X-C chemokine receptor type 4 (CXCR4, Homo sapiens, UniProt P61073); calcium signal, antagonist, fluorescence).
For CC(C)(O)c1ccccc1CC[C@H](c1cccc(/C=C/c2ccc3ccc(Cl)cc3n2)c1)S(=O)(=O)CC1(CC(=O)O)CC1, the IC50 was 0.02 µM (CYP2C8; inhibitor; human liver microsomes; pH 7.4, together with: paclitaxel).
The IC50 of CC(C)C[C@H](NC(=O)CNC(=O)[C@@H](N)Cc1c[nH]c2ccccc12)C(=O)N1CCC[C@H]1C(=O)O is reported as 263 µM and < 300 µM (Dipeptidyl peptidase 4 (DPP4, Homo sapiens, UniProt P27487); enzyme activity, inhibitor, absorbance).
The IC50 of CC(C)C[C@H](NC(=O)[C@@H](N)CCCCN)C(=O)NCC(=O)NCC(=O)NCC(=O)N[C@@H](CCC(N)=O)C(=O)N[C@@H](Cc1ccc(O)cc1)C(=O)NCC(=O)N[C@@H](CCC(=O)O)C(=O)O is reported as 9.87 µM (HLA class I histocompatibility antigen, A alpha chain, allele A*31:01 (Homo sapiens, UniProt P04439); peptide binding, competitive radioligand binding; room temperature, HLA-A*3101 allele, together with: radiolabelled probe peptide).
The IC50 of CNC(=O)N=C(NCCC[C@@H]1NC(=O)[C@@H](C)NC(=O)C[C@@H](C(=O)O)NC(=O)C[C@@H](C(=O)O)NC(=O)[C@H](Cc2ccccc2)N(C)C1=O)NC(=O)NC is reported as 50 µM (Endochitinase B1 (Aspergillus fumigatus, UniProt Q873X9); enzyme activity, inhibitor, fluorometric; 10 min, pH 5.5, 37 °C, together with: 20 µM 4-MU-chitobiose).
COc1ccc(F)cc1S(=O)(=O)Nc1cnc2c(c1)C(=O)NCCO2 has an IC50 of greater than 100 µM (CYP2C8; enzyme activity, inhibitor; human, liver microsomes; with preincubation).
Cc1cc(Oc2nc(N3CC[C@@H](c4ccncc4)C3)ncc2F)[nH]n1 has an IC50 of > 14 µM and 14 µM (PPAT (Homo sapiens, UniProt Q06203); enzyme activity, inhibitor).
CC(C)C[C@H](NC(=O)[C@H](C)NC(=O)[C@H](CO)NC(=O)[C@H](CC(=O)O)NC(=O)[C@H](CCC(=O)O)NC(=O)[C@@H]1CCCN1C(=O)[C@H](CC(=O)O)NC(=O)[C@H](CCC(=O)O)NC(=O)[C@@H]1CCCN1C(=O)[C@@H](N)C(C)C)C(=O)N[C@@H](CC(C)C)C(=O)N[C@@H](CCC(=O)O)C(=O)O has an IC50 of greater than 5 µM (HLA-DRA/HLA-DRB3 (Homo sapiens, UniProt P01903+P79483); binding, competition binding; purified HLA-DR; 48 h, together with: radiolabelled probe peptide 0.1-1 nM).
For CN(C)C(=O)C1CN1S(=O)(=O)c1ccc(N(C)C)cc1 (stereo not drawn), the IC50 was 200 µM (PDIA3; enzyme activity, inhibitor, absorbance; pH 7.6).
CC[C@H](C)[C@@H]1NC(=O)[C@H](CC(C)C)NC(=O)CNC(=O)[C@H](CCCNC(=N)N)NC(=O)[C@H](Cc2c[nH]c3ccccc23)NC(=O)[C@H](CCSC)NC(=O)[C@H](CO)NC(=O)[C@H](CCC(=O)O)NC(=O)[C@H](Cc2ccccc2)NC(=O)[C@H](CC(=O)O)NC(=O)[C@H]([C@@H](C)O)NC(=O)CNC(=O)[C@H](CCC(=O)O)NC(=O)[C@H]([C@@H](C)O)NC(=O)CNC(=O)[C@H](CC(=O)O)NC1=O gave an IC50 of 0.338 µM (E3 ubiquitin-protein ligase Mdm2 (MDM2, Homo sapiens, UniProt Q00987); protein-protein interaction, inhibitor, AlphaScreen).
For Cc1cc([C@H](NC(=O)c2cnccc2-c2ccc(C(F)(F)F)cc2)C(=O)N(C)C)cc(C(F)(F)F)c1, the IC50 was 0.1 ± 0.03 µM (NKG2-D type II integral membrane protein, with MICA (KLRK1, Homo sapiens, UniProt P26718); ligand binding, inhibitor, TR-FRET; HEK293 expressing NKG2D and DAP10; together with: MICA-Alexa647).
The IC50 of CC[N+](CC)(CC)CC is reported as 1800 ± 200 µM (Potassium channel protein kcv, one L70A, three L70Y (A250R, Paramecium bursaria Chlorella virus 1, UniProt Q84568, L70A/L70Y)).
The IC50 of CCc1ccc([C@@H]2C[C@H](C(F)(F)F)n3ncc(C(=O)NCc4ccc(OC)cc4)c3N2)cc1 is reported as 4.4 µM (Cytochrome P450 2C9 (CYP2C9, Homo sapiens, UniProt P11712); inhibitor).
CC12CC(c3ccoc3)OC(=O)C1(O)CCC1(C)C2C2OC(=O)C1(O)C1OC21 (stereo not drawn) has an IC50 of 120 µM (Acetylcholinesterase (Ache, Rattus norvegicus, UniProt P37136); enzyme activity, inhibitor, Ellman).
With Nc1ncnc2c1ncn2[C@@H]1O[C@H](CSCCNC(=O)NCCc2ccccc2)[C@@H](O)[C@H]1O the IC50 was greater than 50 µM (Actin-histidine N-methyltransferase (SETD3, Homo sapiens, UniProt Q86TU7); enzyme activity, inhibitor, radiometric).
For CC(=O)N[C@@H](CC(C)C)C(=O)N[C@@H](CCC(=O)O)C(=O)N[C@@H](CO)C(=O)N[C@@H](CC(=O)O)C(=O)CCl, the IC50 was 5.08 µM (Caspase-6 (CASP6, Homo sapiens, UniProt P55212); enzyme activity, inhibitor, fluorescence).
The IC50 of CCCCC[N+](CCCCC)(CCCCC)CCCCC is reported as 0.3 µM (Potassium channel subfamily K member 18 (KCNK18, Homo sapiens, UniProt Q7Z418); ion current, inhibitor, patch clamp).
The IC50 of CN(C)C(=O)C(NC(=O)c1ccccc1-c1ccc(C(F)(F)F)cc1)c1cccc(C(F)(F)F)c1 (stereo not drawn) is reported as 5 ± 0.9 µM (NKG2-D type II integral membrane protein, with ULBP6 (KLRK1, Homo sapiens, UniProt P26718)).
The IC50 of CC(=O)N[C@@H](CCCNC(=N)N)C(=O)N[C@H](C(=O)N1CCC[C@H]1C(=O)N[C@@H](COP(=O)(O)O)C(=O)N[C@@H](CC(C)C)C(=O)N1CCC[C@H]1C(=O)N[C@@H](C(=O)N1CCC[C@H]1C(c1ccccc1)c1ccccc1)C(C)C)[C@@H](C)O is reported as 7.6 µM (14-3-3 protein zeta/delta (YWHAZ, Homo sapiens, UniProt P63104); peptide binding, inhibitor, competitive fluorescence polarization; 10 µM protein, together with: 100 nM FAM-labelled diphosphorylated Tau peptide).
The IC50 of CC[C@@H]1C(=O)N(C)c2cnc(Nc3ccc(C(=O)NCCCC[C@H](NC(=O)COCCOCCNC(=O)COCCOCCNC(=O)COCCOCCNC(=O)[C@@H](NC(=O)[C@H](CO)NC(=O)[C@H](Cc4cncn4CCCCCCCCc4ccccc4)NC(=O)[C@H](CC(C)C)NC(=O)[C@@H]4CCCN4C(C)=O)[C@@H](C)OP(=O)(O)O)C(N)=O)cc3OC)nc2N1C1CCCC1 is reported as 0.0017 ± 9.7e-05 µM (Serine/threonine-protein kinase PLK1 (PLK1, Homo sapiens, UniProt P53350); enzyme activity, inhibitor).
COC(=O)C=CCCC(NC(=O)c1ccncc1C(=O)O)C(=O)NC(C(=O)N1CC(=O)CC1C(=O)NC(C(=O)NC(C(N)=O)C1CCCCC1)C1CCCCC1)C(C)(C)C (stereo not drawn) gave an IC50 of 0.028 ± 0.0006 µM (Coagulation factor XIII A chain (Canis lupus familiaris, UniProt A0A8I3S1X8); isopeptidase activity, inhibitor; dog enzyme, together with: substrate A101).
The IC50 of CC(=O)Nc1ccc2ccn(-c3cc(NS(=O)(=O)c4ccccc4)n4ncc(C#N)c4n3)c2c1 is reported as 3.98 µM (CSNK2A1; target engagement in cells, BRET).
With N[C@@H](CN[C@@H](CN[C@@H](CC(=O)O)C(=O)O)C(=O)O)C(=O)O the IC50 was 53000 µM (IMP-7 metallo-beta-lactamase; enzyme activity, inhibitor; Zn2+-depleted).
CN[C@@H](C)C(=O)N[C@H](C(=O)N1C[C@@H](NC(=O)COCCOCCOCc2cn(CCNC(=O)CN(Cc3cccs3)C(=O)[C@H](NS(=O)(=O)c3cc4ccc(O)nc4cc3Cl)c3ccccc3OC)nn2)C[C@H]1C(=O)N[C@@H]1CCCc2ccccc21)C1CCCCC1 has an IC50 of 0.55 µM (UDP-N-acetylglucosamine--peptide N-acetylglucosaminyltransferase 110 kDa subunit (OGT, Homo sapiens, UniProt O15294); enzyme activity, inhibitor, fluorescence).
CC[C@H](C)[C@H](NC(=O)[C@H](CC(N)=O)NC(=O)[C@H](CCC(=O)O)NC(=O)[C@H](CCCCN)NC(=O)[C@@H](NC(=O)[C@@H](NC(=O)CN)[C@@H](C)O)[C@@H](C)CC)C(=O)N[C@H](C(=O)NCC(=O)N[C@H](C(=O)N[C@@H](CO)C(=O)N[C@@H](Cc1ccc(O)cc1)C(=O)N[C@@H](CC(=O)O)C(=O)N[C@@H](CCC(=O)O)C(=O)N[C@@H](Cc1ccc(O)cc1)C(=O)N[C@@H](CCCNC(=N)N)C(=O)N[C@@H](Cc1ccc(O)cc1)C(=O)N[C@@H](CCCNC(=N)N)C(=O)O)C(C)C)[C@@H](C)CC gave an IC50 of 15 µM (CSNK2A1; enzyme activity, inhibitor, radiometric; pH 7.5).
The IC50 of CCCCn1nnc(-c2ccccc2NC(=O)[C@H](C)CS)n1 is reported as 1.49 µM (Metallo-beta-lactamase type 2; inhibitor; 10 min preincubation, together with: FC5 substrate).
CC[C@H](C)[C@H](NC(=O)CNC(=O)[C@H](Cc1ccccc1)NC(=O)[C@@H]1CSCC(=O)N[C@H](Cc2ccc(O)cc2)C(=O)N2CCC[C@H]2C(=O)N[C@@H](CCCCN)C(=O)N1)C(=O)N[C@@H](CCCCN)C(=O)N[C@@H](Cc1ccccc1)C(=O)N[C@@H](CCCNC(=N)N)C(=O)N[C@@H](CC(=O)O)C(=O)N[C@@H](CCCNC(=N)N)C(=O)N[C@@H](Cc1ccccc1)C(=O)N[C@@H](CC(C)C)C(=O)N[C@@H](CC(C)C)C(=O)N[C@@H](CC(C)C)C(=O)N[C@@H](C)C(=O)NCC(N)=O gave an IC50 of 4.43 µM and ~5 µM (Nicotinamide N-methyltransferase (NNMT, Homo sapiens, UniProt P40261); enzyme activity, inhibitor, mass spectrometry).
CNC(=O)c1ccc(-c2cnc3cnc(C(=O)N(C)c4ccc(Cl)cc4)cn23)cc1 gave an IC50 of 0.017 ± 0.012 µM (Phosphatidylinositol 4-kinase (Cryptosporidium parvum, UniProt Q5CVD3); enzyme activity; together with: ATP 3 µM).
The IC50 of C[C@]1(COC(=O)c2ccc(O)c(O)c2)[C@H](C(=O)O)N2C(=O)/C(=C/c3ccccn3)[C@H]2S1(=O)=O is reported as 0.0013 ± 0.0002 µM (Beta-lactamase (ampC, Pseudomonas aeruginosa, UniProt P24735); inhibitor; together with: nitrocefin).
N#C[C@@]1(c2ccc3c(N)ncnn23)O[C@H](COP(=O)(O)OP(=O)(O)OP(=O)(O)O)[C@@H](O)[C@H]1O gave an IC50 of greater than 200 µM (DNA polymerase subunit gamma-1 (POLG, Homo sapiens, UniProt P54098); enzyme activity, inhibitor).

For quick reference, copied from above:
CC[C@H](C)[C@@H]1NC(=O)[C@H](CC(C)C)NC(=O)CNC(=O)[C@H](CCCNC(=N)N)NC(=O)[C@H](Cc2c[nH]c3ccccc23)NC(=O)[C@H](CCSC)NC(=O)[C@H](CO)NC(=O)[C@H](CCC(=O)O)NC(=O)[C@H](Cc2ccccc2)NC(=O)[C@H](CC(=O)O)NC(=O)[C@H]([C@@H](C)O)NC(=O)CNC(=O)[C@H](CCC(=O)O)NC(=O)[C@H]([C@@H](C)O)NC(=O)CNC(=O)[C@H](CC(=O)O)NC1=O gave an IC50 of 0.338 µM (E3 ubiquitin-protein ligase Mdm2 (MDM2, Homo sapiens, UniProt Q00987); protein-protein interaction, inhibitor, AlphaScreen).
COc1ccc(F)cc1S(=O)(=O)Nc1cnc2c(c1)C(=O)NCCO2 has an IC50 of greater than 100 µM (CYP2C8; enzyme activity, inhibitor; human, liver microsomes; with preincubation).
With CC(=O)[O][Cu+].CN1CCCN2CCN(C)CCCN(CC1)CC2 the IC50 was 0.186 µM (C-X-C chemokine receptor type 4 (CXCR4, Homo sapiens, UniProt P61073); calcium signal, antagonist, fluorescence).
With CNC(=O)C1CN1S(=O)(=O)c1ccc(C(C)(C)C)cc1 (stereo not drawn) the IC50 was 62 µM (PDIA3; enzyme activity, inhibitor, absorbance; pH 7.6).
